{"data": "Measured values collected from several papers", "note": "Each line is one published result; not all experiments were run side by side. ± marks the error that the study gave."}
{"Compound": "Cc1ccc(Nc2ncc3c(n2)N(C)C(=O)N(c2cc(NC(=O)c4cc(-n5cnc(C)c5)cc(C(F)(F)F)c4)ccc2C)C3)cn1", "target": "FGFR4/Transcription factor ETV6 (Homo sapiens, UniProt P22455+P41212, V550E)", "test": "cell proliferation", "test system": "Ba/F3 TEL-FGFR4 V550E", "how to read": "relative to: compound over GNF-7", "quantity": "potency ratio", "value": "2 fold"}
{"Compound": "CSCC[C@H](NC(=O)[C@H](CCCNC(=N)N)NC(=O)[C@H](CO)NC(=O)[C@@H](NC(=O)[C@H](CC(=O)O)NC(=O)[C@H](CC(=O)O)NC(=O)CCCCCNC(=O)c1ccc2c(c1)C(=O)OC21c2ccc(O)cc2Oc2cc(O)ccc21)[C@@H](C)O)C(=O)N[C@@H](CCC(=O)O)C(=O)N[C@@H](CCCCN)C(=O)N[C@H](C(=O)N[C@@H](CC(=O)O)C(=O)O)C(C)C", "target": "FKBP4 (Homo sapiens, UniProt Q02790)", "test": "binding, fluorescence polarization", "conditions": "pH 7.4, full-length protein", "how to read": "relative to: wild-type Hsp90α tracer", "quantity": "affinity decrease", "value": "≥ 3 fold"}
{"Compound": "O=C(Oc1cccc2c1C(=O)C=CC2=O)c1ccccc1", "target": "Serine hydrolase RBBP9 (Rbbp9, Mus musculus, UniProt O88851)", "test": "inhibitor, gel-based competitive ABPP", "how to read": "relative to: mouse over human RBBP9", "quantity": "IC50 ratio", "value": "~50 fold"}
{"Compound": "CC1=C(C)[C@@H](Oc2c(F)cc3c(C)cc(=O)oc3c2F)OC1=O", "target": "RMS3 (Lathyrus oleraceus, UniProt A0A109QYD3)", "test": "enzyme activity, substrate, DiFMU release", "conditions": "pre-steady state", "quantity": "kcat/K1/2", "value": "0.007 µM⁻¹ min⁻¹"}
{"Compound": "CCN(Cc1ccccc1)C(=O)CCc1nc(CN2CCN(C(=O)Cc3ccc(OC)c(OC)c3)CC2)no1", "target": "KCNQ2 (Homo sapiens, UniProt O43526)", "test": "potassium current, whole-cell patch clamp", "test system": "CHO, stable", "conditions": "1 µM", "quantity": "activation V1/2", "value": "-40 ± 11.7 mV"}
{"Compound": "O[C@@H]1[C@@H](O)[C@H](O[C@@H]2OC[C@@H](O)[C@H](O)[C@H]2O)C[C@H]2N[C@@H]12", "target": "Exo-1,4-beta-xylosidase xlnD (xlnD, Emericella nidulans, UniProt Q5BAS1)", "test": "covalent inhibitor", "test system": "Aspergillus nidulans", "conditions": "pH 4.5", "quantity": "kinact/Ki", "value": "66.7 M⁻¹ s⁻¹"}
{"Compound": "CC(=O)NC(Cc1ccc(Br)c(Cl)c1)C(=O)N[C@@H](C)C(=O)N1CCC[C@H]1C(=O)N1CCC[C@H]1C(=O)N[C@@H](CCC(=O)O)C(=O)N[C@@H](Cc1c[nH]cn1)C(=O)N[C@@H](CO)C(=O)N[C@H](C(=O)N[C@@H](C)C(N)=O)[C@@H](C)OP(=O)(O)O (some centres unmarked)", "target": "PLK4 (Homo sapiens, UniProt O00444)", "conditions": "10 µM", "quantity": "inhibition", "value": "3.18 ± 0.19%"}
{"Compound": "Nc1ncnc2c1ncn2[C@@H]1O[C@@H]2COP(=O)(O)O[C@H]3[C@@H](O)[C@H](n4cnc5cncnc54)O[C@@H]3COP(=O)(O)O[C@H]2[C@H]1O", "target": "gdpP, residues 84-659 (Bacillus subtilis, UniProt P37484)", "test": "substrate, HPLC", "conditions": "100 µM, 37 °C, upper limit if undegraded 24 h, together with: enzyme 1 µM", "quantity": "degradation rate", "value": "1.1 ± 0.1 mol/min/mol enzyme"}
{"note": "A few entries again:"}
{"Compound": "CCN(Cc1ccccc1)C(=O)CCc1nc(CN2CCN(C(=O)Cc3ccc(OC)c(OC)c3)CC2)no1", "target": "KCNQ2 (Homo sapiens, UniProt O43526)", "test": "potassium current, whole-cell patch clamp", "test system": "CHO, stable", "conditions": "1 µM", "quantity": "activation V1/2", "value": "-40 ± 11.7 mV"}
